Literature values as cited in several papers.
Protocols differ between the studies behind these lines. “And” joins repeats or separate records; there may be more than shown. ± gives the spread as reported.

Compound	organism	test	system	setting	scale	quantity	value
FC(F)(F)c1ccc(Oc2ccc(-c3noc(-c4ccc5[nH]ccc5c4)n3)cc2)cc1	Gram-negative bacteria			concentration not given		antibacterial activity	inactive
Cc1c(CN(C)C(=O)/C=C/c2cnc3c(c2)CCC(=O)N3)oc2ccccc12	Staphylococcus aureus		MRSA 43300	32 x MIC, 4 h, 35 °C		post-antibiotic effect	0.2 ± 0.1 h
CC(C)Nc1nc2cc(Cl)c(Cl)cc2n1[C@H]1O[C@@H](CO)[C@H](O)[C@@H]1O	human cytomegalovirus	viral replication	UL97 H411Y mutant			EC50	2100 nM
Oc1c(Br)cc(Br)c2nc3ccccc3nc12	Staphylococcus aureus		MRSA 20, biofilm			MBEC	100 µM
CO/N=C(\C(=O)N[C@@H]1C(=O)N2C(C(=O)O)=C(COC(C)=O)CS[C@H]12)c1csc(N)n1	Streptococcus pneumoniae	E-test	strain 700678 serotype 19A resistant			MIC	1 µg/mL
Oc1cccc(C2CCCN(CCc3c[nH]c4ccccc34)C2)c1 (centres unmarked)	Plasmodium falciparum	whole cell extended time	3D7	72 h		IC50	860 nM
C/C(=C\C(=O)OCCCCCCCCC(=O)O)C[C@@H]1OC[C@H](C[C@@H]2O[C@H]2[C@@H](C)[C@H](C)O)[C@@H](O)[C@H]1O	Staphylococcus aureus		MRSA high-level resistant			MIC	> 1020 µM
Nc1nc(O)c2ncn(COC(CO)CO)c2n1	human cytomegalovirus	viral replication		10 d		IC50	3000 nM
CC[C@H]1OC(=O)[C@H](C)[C@@H](O[C@H]2C[C@@](C)(OC)[C@@H](O)[C@H](C)O2)[C@H](C)[C@@H](O[C@@H]2O[C@H](C)C[C@H](N(C)C)[C@H]2O)[C@](C)(O)C[C@@H](C)C(=O)[C@H](C)[C@@H](O)[C@]1(C)O	Streptococcus pneumoniae	E-test	strain 700676 serotype 14 resistant			MIC	32 µg/mL
N/C(CC(O)c1cc2c(F)cc(F)cc2c2cc(C(F)(F)F)ccc12)=N\c1ccc(F)cc1 (centres unmarked)	Plasmodium falciparum	parasite growth	TM90C2b			IC50	13 nM
Nc1ccn(C[C@@H](CO)OCP(=O)(O)O)c(=O)n1	human cytomegalovirus	viral replication	UL54 A987G mutant		baseline: wild type	EC50 fold change	~6.5 fold
Cn1c(Cn2ccc(C(F)(F)F)c(Oc3cc(Cl)cc(C#N)c3)c2=O)n[nH]c1=O	HIV-1	viral replication	K103N mutant	50% human serum		EC95	42 nM
CCCCCCCc1cc(=O)c2ccccc2[nH]1	Plasmodium falciparum	whole cell extended time	3D7	72 h		IC50	320 nM
COc1cccc(N2CCN(C3=Nc4c(F)cccc4[C@H](CC(=O)O)N3c3cc(C(F)(F)F)ccc3OC)CC2)c1	human cytomegalovirus	viral replication	UL56 V236M mutant			EC50	102 nM
[2H]C([2H])([2H])C1(C([2H])([2H])[2H])NC(=O)N(c2ccc(F)c(C(F)(F)F)c2)C1=O	Schistosoma mansoni		juvenile, infected mice	oral, 100 mg/kg single dose		worm burden reduction	62 to 100% and 86%
CCC[C@@H]1C[C@@H](C(=O)N[C@@H]([C@H]2O[C@H](SC)[C@H](O)[C@@H](O)[C@H]2O)[C@H](C)Cl)N(C)C1	Streptococcus pneumoniae	E-test	strain 700678 serotype 19A resistant			MIC	> 32 µg/mL
Cc1cn(-c2ccc3c(c2)CN(c2ncc(Cc4ccc(-n5cccn5)cc4)s2)CC3)c(C)n1	human cytomegalovirus	viral replication				EC50	466 ± 20.3 nM
CC(C)CCCCCCCCC[C@@H]1CC(=O)N[C@@H](CCC(=O)O)C(=O)N[C@@H](CC(C)C)C(=O)N[C@H](CC(C)C)C(=O)N[C@@H](C(C)C)C(=O)N[C@@H](CC(=O)O)C(=O)N[C@H](CC(C)C)C(=O)N[C@@H](CC(C)C)C(=O)O1	porcine epidemic diarrhea virus		epithelial cells		range over	antiviral concentration range	15 to 50 µg/mL
Nc1nc(O)c2ncn(COC(CO)CO)c2n1	human cytomegalovirus	viral replication	UL97 A549V mutant			EC50	9900 nM
CC1(C)S[C@@H]2[C@H](NC(=O)Cc3ccccc3)C(=O)N2[C@H]1C(=O)O	Streptococcus pneumoniae	E-test	strain 700676 serotype 14 resistant			MIC	0.03 µg/mL
